Assay results collected from several papers.
Compare with care: the assays were run in different laboratories. Values joined by “and” are separate records of one study, mostly repeats; a detail may differ. ± gives the spread as reported.
IFIT1: Antiviral innate immune response effector IFIT1 (IFIT1, Homo sapiens, UniProt P09914)
UniProt P09914, sequence (whole entry, looked up): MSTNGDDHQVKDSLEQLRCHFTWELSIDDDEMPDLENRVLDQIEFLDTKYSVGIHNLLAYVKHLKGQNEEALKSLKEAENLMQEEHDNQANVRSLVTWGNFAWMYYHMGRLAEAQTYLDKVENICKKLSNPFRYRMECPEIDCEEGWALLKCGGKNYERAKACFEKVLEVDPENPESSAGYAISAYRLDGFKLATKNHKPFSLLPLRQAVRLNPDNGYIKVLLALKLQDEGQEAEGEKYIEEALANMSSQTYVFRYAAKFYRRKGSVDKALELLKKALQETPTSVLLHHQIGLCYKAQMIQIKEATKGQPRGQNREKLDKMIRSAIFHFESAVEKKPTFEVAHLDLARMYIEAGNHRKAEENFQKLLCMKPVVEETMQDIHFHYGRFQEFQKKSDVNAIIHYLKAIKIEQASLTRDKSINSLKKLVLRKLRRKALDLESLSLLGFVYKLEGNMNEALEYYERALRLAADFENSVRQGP
VHL with elongin B/C: von Hippel-Lindau disease tumor suppressor, with elongin B/C (VHL, Homo sapiens, UniProt P40337)
UniProt Q9SZU7, sequence (whole entry, unmodified, looked up): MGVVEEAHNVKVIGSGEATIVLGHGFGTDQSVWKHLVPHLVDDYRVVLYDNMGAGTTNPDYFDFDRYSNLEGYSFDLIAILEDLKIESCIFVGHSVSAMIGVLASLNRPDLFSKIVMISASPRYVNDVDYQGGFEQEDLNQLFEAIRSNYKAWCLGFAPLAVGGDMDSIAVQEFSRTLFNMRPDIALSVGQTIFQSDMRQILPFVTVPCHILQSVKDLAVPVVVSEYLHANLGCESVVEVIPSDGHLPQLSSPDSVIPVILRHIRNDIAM
UniProt P40337, sequence (whole entry, looked up): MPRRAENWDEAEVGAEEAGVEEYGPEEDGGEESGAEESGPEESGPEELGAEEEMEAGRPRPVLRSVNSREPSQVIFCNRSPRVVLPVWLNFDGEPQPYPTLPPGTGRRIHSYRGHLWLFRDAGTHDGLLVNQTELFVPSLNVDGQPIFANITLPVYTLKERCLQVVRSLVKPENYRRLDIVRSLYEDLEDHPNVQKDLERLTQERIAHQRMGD
UniProt A4D1P6, sequence (whole entry, looked up): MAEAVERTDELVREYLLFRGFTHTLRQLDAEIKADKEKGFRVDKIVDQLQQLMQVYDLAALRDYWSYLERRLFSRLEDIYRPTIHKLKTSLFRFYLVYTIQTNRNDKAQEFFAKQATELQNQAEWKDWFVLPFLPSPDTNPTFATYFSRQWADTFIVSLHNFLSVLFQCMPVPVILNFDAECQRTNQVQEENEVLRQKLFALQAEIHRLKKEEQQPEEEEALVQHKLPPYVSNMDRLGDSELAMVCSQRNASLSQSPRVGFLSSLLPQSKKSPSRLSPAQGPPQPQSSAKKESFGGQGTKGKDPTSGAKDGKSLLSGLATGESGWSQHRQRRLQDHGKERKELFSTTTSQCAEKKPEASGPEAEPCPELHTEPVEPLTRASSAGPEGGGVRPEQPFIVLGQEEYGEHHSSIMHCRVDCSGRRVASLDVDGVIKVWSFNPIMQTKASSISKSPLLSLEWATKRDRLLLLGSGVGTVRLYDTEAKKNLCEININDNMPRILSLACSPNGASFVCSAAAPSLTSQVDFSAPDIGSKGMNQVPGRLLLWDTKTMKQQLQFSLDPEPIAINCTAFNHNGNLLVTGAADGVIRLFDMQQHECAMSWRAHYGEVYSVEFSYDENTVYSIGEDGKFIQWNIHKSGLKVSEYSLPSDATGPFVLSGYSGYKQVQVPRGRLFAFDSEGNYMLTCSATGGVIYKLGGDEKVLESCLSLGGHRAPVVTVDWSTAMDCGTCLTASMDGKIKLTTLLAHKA
UniProt P02754, sequence (whole entry, unmodified, looked up): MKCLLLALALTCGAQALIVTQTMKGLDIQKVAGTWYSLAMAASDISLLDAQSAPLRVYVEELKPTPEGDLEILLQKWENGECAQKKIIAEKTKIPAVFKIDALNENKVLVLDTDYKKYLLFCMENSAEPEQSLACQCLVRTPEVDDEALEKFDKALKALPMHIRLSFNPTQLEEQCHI
UniProt Q86WV6, sequence (whole entry, unmodified, looked up): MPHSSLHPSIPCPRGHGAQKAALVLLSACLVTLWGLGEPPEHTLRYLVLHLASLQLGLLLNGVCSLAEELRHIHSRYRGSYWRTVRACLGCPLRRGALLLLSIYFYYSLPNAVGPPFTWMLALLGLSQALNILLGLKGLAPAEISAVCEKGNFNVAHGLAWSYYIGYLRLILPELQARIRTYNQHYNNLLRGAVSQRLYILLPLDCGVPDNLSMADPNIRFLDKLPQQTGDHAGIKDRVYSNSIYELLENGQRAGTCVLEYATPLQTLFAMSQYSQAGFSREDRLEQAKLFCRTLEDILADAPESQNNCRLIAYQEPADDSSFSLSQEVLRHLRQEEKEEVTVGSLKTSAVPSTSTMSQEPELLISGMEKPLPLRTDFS
UniProt P43166, sequence (whole entry, looked up): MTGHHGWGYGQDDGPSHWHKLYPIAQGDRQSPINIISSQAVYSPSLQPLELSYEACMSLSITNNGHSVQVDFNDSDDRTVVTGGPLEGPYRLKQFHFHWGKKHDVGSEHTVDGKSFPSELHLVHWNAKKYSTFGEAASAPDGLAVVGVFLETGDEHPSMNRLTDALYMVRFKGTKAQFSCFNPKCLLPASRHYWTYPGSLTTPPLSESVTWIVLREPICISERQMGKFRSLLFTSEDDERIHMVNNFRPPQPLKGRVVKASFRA
UniProt P39748, sequence (whole entry, unmodified, looked up): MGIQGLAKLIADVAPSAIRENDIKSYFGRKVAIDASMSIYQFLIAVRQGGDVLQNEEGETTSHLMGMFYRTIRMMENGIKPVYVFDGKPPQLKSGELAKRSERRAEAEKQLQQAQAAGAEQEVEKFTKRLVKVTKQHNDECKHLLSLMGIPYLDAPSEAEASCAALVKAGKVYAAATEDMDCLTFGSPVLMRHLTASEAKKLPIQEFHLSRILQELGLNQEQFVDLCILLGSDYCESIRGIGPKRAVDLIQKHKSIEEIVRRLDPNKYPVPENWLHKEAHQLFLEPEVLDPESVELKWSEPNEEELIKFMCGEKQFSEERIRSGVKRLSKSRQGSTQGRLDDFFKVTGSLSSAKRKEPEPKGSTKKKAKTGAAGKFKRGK
UniProt Q9SCZ4, sequence (whole entry, unmodified, looked up): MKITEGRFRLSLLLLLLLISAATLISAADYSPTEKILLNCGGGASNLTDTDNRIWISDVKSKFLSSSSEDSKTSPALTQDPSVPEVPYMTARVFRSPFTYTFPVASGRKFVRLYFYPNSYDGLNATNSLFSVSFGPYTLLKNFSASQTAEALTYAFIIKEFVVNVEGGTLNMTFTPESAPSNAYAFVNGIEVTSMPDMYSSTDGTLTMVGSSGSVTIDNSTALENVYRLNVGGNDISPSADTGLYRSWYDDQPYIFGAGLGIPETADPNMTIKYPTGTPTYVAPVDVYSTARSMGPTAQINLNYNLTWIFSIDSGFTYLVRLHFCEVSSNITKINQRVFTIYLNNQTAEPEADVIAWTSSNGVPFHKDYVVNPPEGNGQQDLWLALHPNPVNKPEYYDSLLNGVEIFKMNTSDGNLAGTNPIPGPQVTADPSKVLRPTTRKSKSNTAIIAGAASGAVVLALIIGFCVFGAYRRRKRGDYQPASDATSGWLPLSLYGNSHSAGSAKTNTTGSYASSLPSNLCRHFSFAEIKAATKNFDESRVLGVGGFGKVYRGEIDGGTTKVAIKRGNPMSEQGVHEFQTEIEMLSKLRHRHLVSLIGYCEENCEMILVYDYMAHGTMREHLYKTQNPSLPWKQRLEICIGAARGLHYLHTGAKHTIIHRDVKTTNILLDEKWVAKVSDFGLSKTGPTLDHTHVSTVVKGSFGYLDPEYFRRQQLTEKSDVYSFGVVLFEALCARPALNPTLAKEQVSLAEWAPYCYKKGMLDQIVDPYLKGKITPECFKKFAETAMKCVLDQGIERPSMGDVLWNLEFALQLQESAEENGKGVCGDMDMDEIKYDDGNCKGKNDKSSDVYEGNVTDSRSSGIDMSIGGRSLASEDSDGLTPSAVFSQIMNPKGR
UniProt P25440, sequence (whole entry, looked up): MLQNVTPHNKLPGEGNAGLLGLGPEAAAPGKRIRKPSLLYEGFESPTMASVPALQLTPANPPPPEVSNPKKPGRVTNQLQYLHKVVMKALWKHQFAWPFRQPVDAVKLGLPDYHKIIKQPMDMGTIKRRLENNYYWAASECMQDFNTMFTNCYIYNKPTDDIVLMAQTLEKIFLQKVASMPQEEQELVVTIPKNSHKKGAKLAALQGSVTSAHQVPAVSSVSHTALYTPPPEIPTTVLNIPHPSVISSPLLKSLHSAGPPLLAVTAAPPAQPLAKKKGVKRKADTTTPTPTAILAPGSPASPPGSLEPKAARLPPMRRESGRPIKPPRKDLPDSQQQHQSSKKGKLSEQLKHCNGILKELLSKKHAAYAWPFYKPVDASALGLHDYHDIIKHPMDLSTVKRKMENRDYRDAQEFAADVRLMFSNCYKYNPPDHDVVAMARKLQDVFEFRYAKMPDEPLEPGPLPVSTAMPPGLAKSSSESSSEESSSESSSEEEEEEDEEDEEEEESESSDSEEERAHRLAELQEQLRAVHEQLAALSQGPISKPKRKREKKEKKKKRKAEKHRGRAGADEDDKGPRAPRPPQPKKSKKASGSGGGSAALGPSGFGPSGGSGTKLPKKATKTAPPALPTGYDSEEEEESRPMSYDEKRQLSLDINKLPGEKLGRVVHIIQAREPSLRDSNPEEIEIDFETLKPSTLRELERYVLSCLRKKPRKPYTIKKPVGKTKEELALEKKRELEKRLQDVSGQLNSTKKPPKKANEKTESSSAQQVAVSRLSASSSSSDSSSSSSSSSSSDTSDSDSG
UniProt Q8N5Y8, sequence (whole entry, looked up): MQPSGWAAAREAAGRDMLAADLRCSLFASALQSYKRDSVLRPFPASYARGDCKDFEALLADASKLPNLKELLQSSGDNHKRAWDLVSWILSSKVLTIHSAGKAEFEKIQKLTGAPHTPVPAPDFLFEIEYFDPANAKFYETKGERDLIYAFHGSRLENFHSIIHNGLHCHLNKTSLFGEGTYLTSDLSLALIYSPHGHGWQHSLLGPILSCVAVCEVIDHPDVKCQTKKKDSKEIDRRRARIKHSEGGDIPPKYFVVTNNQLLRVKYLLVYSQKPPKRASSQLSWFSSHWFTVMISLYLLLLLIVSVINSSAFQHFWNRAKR

| Structure (SMILES) | target | assay | test system | setting | Kd |
| --- | --- | --- | --- | --- | --- |
| CCc1nc2cc3ccccc3cc2cc1C(=O)N1CCC[C@H]1C(=O)N[C@@H](C/C=C\C[C@H](NC(=O)[C@@H]1CCCN1C(=O)c1cc2cc3ccccc3cc2nc1CC)C(=O)N[C@@H](CCCCN)C(=O)NCCCN)C(=O)N[C@@H](CCCCN)C(=O)NCCCN | CUG–CAG duplex RNA | SPR |  |  | 0.078 µM |
| CNc1ncnc2c1ncn2[C@@H]1O[C@H](COP(=O)(O)OP(=O)([O-])OP(=O)(O)OC[C@H]2O[C@@H](n3c[n+](C)c4c(O)nc(N)nc43)[C@H](O)[C@@H]2O)[C@@H](OP(=O)(O)OC[C@H]2O[C@@H](n3cnc4c(=O)[nH]c(N)nc43)[C@H](O)[C@@H]2O)[C@H]1OC | IFIT1 | binding, microscale thermophoresis |  | pH 7.5, 70 nt capped RNA | 0.9 µM |
| CCN(CC)Cc1cn(Cc2ccc(C(=O)N[C@@H]3CCc4c(C#N)cccc43)cc2)nn1 | WD repeat-containing protein 91 (Homo sapiens, UniProt A4D1P6) | binding, SPR |  |  | 2.7 µM |
| O=c1c2sccc2n(CC2COc3ccccc3O2)c(=O)n1O (stereo not drawn) | Flap endonuclease 1 (Homo sapiens, UniProt P39748) | ITC |  | pH 7.5, 25 °C, together with: 8 mM Mg2+ | 0.182 µM |
| Nc1nc(O)c2ncn([C@H]3C[C@@H]4OP(=O)(O)OC[C@@H]5C[C@@H](OP(=O)(O)OC[C@H]4O3)[C@H](n3cnc4c(N)ncnc43)O5)c2n1 | STING1 (Homo sapiens, UniProt Q86WV6, R220H) | binding |  |  | 42.9 ± 35.1 µM |
| CC(=O)N1c2ccc(-c3ccc(CNC(=O)c4cn5cc(-c6cnc(N)nc6)nc(N6CCOCC6)c5n4)cc3)cc2CC[C@@H]1C | Bromodomain-containing protein 2, BD2 (BRD2, Homo sapiens, UniProt P25440) | binding, competition with immobilised ligand |  |  | 0.0016 µM |
| O=C(O)CCC(=O)c1cccc(NS(=O)(=O)c2c[nH]c3ncccc23)c1 | BRCA1-associated protein, ZnF-UBD domain (BRAP, Homo sapiens, UniProt Q7Z569) |  |  |  | 413 µM |
| CC[C@H](C)[C@H](NC(=O)[C@H](C)NC(=O)[C@@H](N)CO)C(=O)N[C@@H](CCCNC(=N)N)C(=O)NCC(=O)N[C@@H](C)C(=O)O | AimR transcriptional regulator (aimR, Bacillus phage phi3T, UniProt P0DOE3) | ITC | phage phi3T | pH 8, 25 °C | 0.0067 ± 0.0006 µM |
| COC(=O)CCCNC(=O)c1cc(S(N)(=O)=O)c(Cl)cc1NC1CCCCC1 | CA7 (Homo sapiens, UniProt P43166) |  |  | pH 7 | 4 µM |
| Nc1nc2c(ncn2[C@@H]2O[C@H](COP(=O)(O)O[C@H]3[C@@H](O)[C@H](n4ccc(=O)[nH]c4=O)O[C@@H]3COP(=O)(O)OP(=O)(O)OP(=O)(O)O)[C@@H](O)[C@H]2O)c(=O)[nH]1 | IFIT1 | binding, microscale thermophoresis |  | pH 7.5, 70 nt capped RNA | 0.27 µM |
| CCc1nc2cc3ccccc3cc2cc1C(=O)N[C@@H](CCCCN)C(=O)N[C@@H](C/C=C/C[C@H](NC(=O)[C@H](CCCCN)NC(=O)c1cc2cc3ccccc3cc2nc1CC)C(=O)N1CCC[C@H]1C(=O)NCCCN)C(=O)N1CCC[C@H]1C(=O)NCCCN | CUG–CAG duplex RNA | SPR |  |  | 0.0803 µM |
| COc1ccc(C(=O)NO)cc1NC(=O)c1ccc(-c2ccccc2)cc1 | Isochorismatase domain-containing protein 1 (Homo sapiens, UniProt Q96CN7) | inhibitor, competition pulldown | SW620 and MV4-11 lysate | 1 h | > 30.2 µM |
| C[n+]1cn([C@@H]2O[C@H](COP(=O)(O)OP(=O)([O-])OP(=O)(O)OC[C@H]3O[C@@H](n4ccc(N)nc4=O)[C@H](O)[C@@H]3OP(=O)(O)OC[C@H]3O[C@@H](n4cnc5c(=O)[nH]c(N)nc54)[C@H](O)[C@@H]3O)[C@@H](O)[C@H]2O)c2nc(N)nc(O)c21 | IFIT1 | binding, microscale thermophoresis |  | pH 7.5 | 13 µM |
| O=C(O)[C@@H]1O[C@@H](O[C@H]2[C@H](O)[C@H](O)[C@H](O[C@H]3[C@H](O)[C@H](O)[C@H](O[C@H]4[C@H](O)[C@H](O)[C@H](O)O[C@H]4C(=O)O)O[C@H]3C(=O)O)O[C@H]2C(=O)O)[C@@H](O)[C@@H](O)[C@@H]1O | Beta-lactoglobulin (LGB, Bos taurus, UniProt P02754, A134V/G80D) | isothermal titration calorimetry |  | pH 4.00, 37 °C, 50 mM KH2PO4 | 198 µM |
| Nc1nc2c(ncn2[C@@H]2O[C@H](COP(=O)(O)O[C@H]3[C@@H](O)[C@H](n4cnc5c(N)ncnc54)O[C@@H]3COP(=O)(O)OP(=O)(O)OP(=O)(O)OC[C@H]3O[C@@H](n4cnc5c(=O)[nH]c(N)nc54)[C@H](O)[C@@H]3O)[C@@H](O)[C@H]2O)c(=O)[nH]1 | IFIT1 | binding, microscale thermophoresis |  | pH 7.5 | 3700 µM |
| CC(=O)NCCN(c1nc(N2CC(Oc3ccccc3)C2)nc(N2CC3C(CCOc4cc(-c5scnc5C)ccc4CNC(=O)[C@@H]4C[C@@H](O)CN4C(=O)[C@@H](NC(=O)C4(F)CC4)C(C)(C)C)C3C2)n1)C(C)C (stereo partly drawn) | VHL with elongin B/C | binary binding, SPR |  |  | 0.437 µM |
| COc1ccc2nc(-c3ccc(N(C)C)cc3)sc2c1 | Alpha-synuclein, fibril (SNCA, Homo sapiens, UniProt P37840) | binding, SPR |  |  | 0.33 µM |
| C#CCN1CCN(c2nc(N3CCC(CCOc4cc(-c5scnc5C)ccc4CNC(=O)[C@@H]4C[C@@H](O)CN4C(=O)[C@@H](NC(=O)C4(F)CC4)C(C)(C)C)CC3)nc(N3CCN(C(=O)C4CC4)C3)n2)CC1=O | VHL with elongin B/C | binary binding, SPR |  |  | 0.013 µM |
| C[n+]1cn([C@@H]2O[C@H](COP(=O)(O)OP(=O)([O-])OP(=O)(O)OC[C@H]3O[C@@H](n4cnc5c(N)ncnc54)[C@H](O)[C@@H]3OP(=O)(O)OC[C@H]3O[C@@H](n4cnc5c(=O)[nH]c(N)nc54)[C@H](O)[C@@H]3O)[C@@H](O)[C@H]2O)c2nc(N)nc(O)c21 | IFIT1 | binding, microscale thermophoresis |  | pH 7.5, 70 nt capped RNA | 0.1 µM |
| CC(=O)NCC1CCCCN1c1nc(NCCn2nnc(C)n2)nc(N2CC3C(CCOc4cc(-c5scnc5C)ccc4CNC(=O)[C@@H]4C[C@@H](O)CN4C(=O)[C@@H](NC(=O)C4(F)CC4)C(C)(C)C)C3C2)n1 (stereo partly drawn) | VHL with elongin B/C | binary binding, SPR |  |  | 0.027 µM |
| Nc1nc2c(ncn2[C@@H]2O[C@H](COP(=O)(O)O[C@H]3[C@@H](O)[C@H](n4ccc(=O)[nH]c4=O)O[C@@H]3COP(=O)(O)OP(=O)(O)O[C@H]3O[C@H](CO)[C@@H](O)[C@H](O)[C@H]3O)[C@@H](O)[C@H]2O)c(=O)[nH]1 | IFIT1 | binding, microscale thermophoresis |  | pH 7.5, 70 nt capped RNA | 8.2 µM |
| Cn1ncc2cc(-c3cncc(Cl)c3N3CCC4(CCNC4=O)CC3)ccc21 | PARP16 (Homo sapiens, UniProt Q8N5Y8) | SILAC displacement | LS174T-L5 cell lysate |  | 18 µM |
| CO[C@@H]1[C@H](OP(=O)(O)OC[C@H]2O[C@@H](n3cnc4c(=O)[nH]c(N)nc43)[C@H](O)[C@@H]2O)[C@@H](COP(=O)(O)OP(=O)([O-])OP(=O)(O)OC[C@H]2O[C@@H](n3c[n+](C)c4c(O)nc(N)nc43)[C@H](O)[C@@H]2O)O[C@H]1n1cnc2c(N)ncnc21 | IFIT1 | binding, microscale thermophoresis |  | pH 7.5, 70 nt capped RNA | 0.52 µM |
| Cc1c2c(nn1C)CSCc1cc(n(C)n1)CSc1cc(c3ccccc3c1)OCCCc1c(C(=O)O)n(C)c3c-2c(Cl)ccc13 | Enoyl-[acyl-carrier-protein] reductase [NADPH] FabI (Staphylococcus aureus, UniProt Q2FZQ3) | binding, BLI |  |  | 10900 µM |
| CN(C)c1nc(O)c2c(n1)n([C@@H]1O[C@H](COP(=O)(O)OP(=O)([O-])OP(=O)(O)OC[C@H]3O[C@@H](n4cnc5c(N)ncnc54)[C@H](O)[C@@H]3OP(=O)(O)OC[C@H]3O[C@@H](n4cnc5c(=O)[nH]c(N)nc54)[C@H](O)[C@@H]3O)[C@@H](O)[C@H]1O)c[n+]2C | IFIT1 | binding, microscale thermophoresis |  | pH 7.5, 70 nt capped RNA | 0.023 µM |
| CC(=O)c1cnc2ccc(-c3cc(Cl)c(O)c(Cl)c3)nc2c1N[C@H]1CC[C@H](CN(C)C)CC1 | Receptor-like protein kinase FERONIA (FER, Arabidopsis thaliana, UniProt Q9SCZ4, Y610A) | binding, SPR |  | mutant protein | 1.8 µM |
| Cc1cccc2c1N(C(=O)n1ccnn1)CC2 | KAI2 (Arabidopsis thaliana, UniProt Q9SZU7, L142A) | ITC |  | L142A mutant | 11.6 µM and 10.3 µM and 9.26 µM |

Repeated from above:
| Structure (SMILES) | target | assay | test system | setting | Kd |
| --- | --- | --- | --- | --- | --- |
| Cc1c2c(nn1C)CSCc1cc(n(C)n1)CSc1cc(c3ccccc3c1)OCCCc1c(C(=O)O)n(C)c3c-2c(Cl)ccc13 | Enoyl-[acyl-carrier-protein] reductase [NADPH] FabI (Staphylococcus aureus, UniProt Q2FZQ3) | binding, BLI |  |  | 10900 µM |
| CN(C)c1nc(O)c2c(n1)n([C@@H]1O[C@H](COP(=O)(O)OP(=O)([O-])OP(=O)(O)OC[C@H]3O[C@@H](n4cnc5c(N)ncnc54)[C@H](O)[C@@H]3OP(=O)(O)OC[C@H]3O[C@@H](n4cnc5c(=O)[nH]c(N)nc54)[C@H](O)[C@@H]3O)[C@@H](O)[C@H]1O)c[n+]2C | IFIT1 | binding, microscale thermophoresis |  | pH 7.5, 70 nt capped RNA | 0.023 µM |
| CC(=O)c1cnc2ccc(-c3cc(Cl)c(O)c(Cl)c3)nc2c1N[C@H]1CC[C@H](CN(C)C)CC1 | Receptor-like protein kinase FERONIA (FER, Arabidopsis thaliana, UniProt Q9SCZ4, Y610A) | binding, SPR |  | mutant protein | 1.8 µM |
| Cc1cccc2c1N(C(=O)n1ccnn1)CC2 | KAI2 (Arabidopsis thaliana, UniProt Q9SZU7, L142A) | ITC |  | L142A mutant | 11.6 µM and 10.3 µM and 9.26 µM |
